Published values collected from several papers.
A part holds a random share of what one study measured.

Study 1
Target: Histone acetyltransferase KAT6A, both winged helices, GST fusion (KAT6A, Homo sapiens, UniProt Q92794, residues 1-181)
Method: protein binding microarray
Form: double-stranded DNA, one strand shown
Sample: in vitro
Concentration: not given
Notes: 8-mer, flanks averaged, mean of 2 arrays, mostly near background
Baseline: not given
Reading: higher = stronger binding
Target sequence (chain): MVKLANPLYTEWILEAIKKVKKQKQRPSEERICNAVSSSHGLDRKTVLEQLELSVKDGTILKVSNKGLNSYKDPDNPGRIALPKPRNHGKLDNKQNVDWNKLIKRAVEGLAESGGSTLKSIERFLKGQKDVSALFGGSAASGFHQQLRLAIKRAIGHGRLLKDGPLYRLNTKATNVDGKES
Sequence | E-score
TATGCAGA | -0.165
AAGCTAAC | -0.117
CCTCCGAC | -0.0409
CCGGTACC | 0.112
CCCGAACG | 0.131
ATTAACTA | -0.0589
ACCGTGTG | 0.0505
ATAGAAAG | 0.0225
ACGGTTAT | 0.13
GGTTCCGA | 0.12
GTACGTGA | -0.0448
CACAGCTC | -0.157

Study 2
Target: RING finger protein unkempt homolog, zinc fingers 1-6, GST-SBP tag (UNK, Homo sapiens, UniProt Q9C0B0, residues 30-357)
UniProt Q9C0B0, sequence (30-357, looked up): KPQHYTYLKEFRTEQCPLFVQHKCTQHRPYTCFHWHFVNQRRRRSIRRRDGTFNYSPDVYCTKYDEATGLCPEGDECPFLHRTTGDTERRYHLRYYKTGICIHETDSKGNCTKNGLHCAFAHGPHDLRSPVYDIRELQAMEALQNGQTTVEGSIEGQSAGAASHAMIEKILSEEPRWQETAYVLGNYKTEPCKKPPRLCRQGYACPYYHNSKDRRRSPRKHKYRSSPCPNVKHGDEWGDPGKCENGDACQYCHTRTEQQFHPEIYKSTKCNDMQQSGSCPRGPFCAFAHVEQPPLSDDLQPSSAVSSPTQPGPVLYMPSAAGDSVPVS
Method: RNA Bind-n-Seq
Form: RNA
Sample: in vitro
Concentration: not given
Notes: RNA with constant flanks, ends assumed
Baseline: input RNA pool
Reading: higher = stronger binding
Constant ends, left off below: GGGAGUUCUACAGUCCGACGAUC … CAACAGAGGAUUGAGCAUCA
Sequence | bound/input enrichment [ratio]
AUUUGAUACUAAUCUGUCUGUUUGUUUGUGGAUUUUGAGAAAUAUUUGCUUAACUACCCAAACCGGAUUUCUGGUAUUAAAUGGCCUUUGGGUCCUAAAAGCUUUUUUUAACUUCUUGCU | 0.309
ACUCAUGUACCCAUGUUACAGGUAUGGACUGCUGAUAAACCACAUCCACAAGAAGAGUAUUCCGAUUGCCUGUGGGCCCAGAUUCAGAAAUUGAAAAAGGAUCGCUGGCAGGAACGGCAC | 0.134
CAUCUCUCAUUUUAUAUGUCCAGAAAUGGCUUUGAAUUUUAAGCAAUUACUAGUUUUAAUCCGCUCUGCCCUCAUGAAGUAUUAUUAUAAUUCACCAUAAACAGCUAUCUGUCUGAAUUA | 36.6
CUUAAUUAGAGGGCAAUAUAUGUUUCAUAAAGAAGAGUCUUUAUAAUUUUGUUUGUCAGACCGUAUUUUGGAAUUUGUAUAAUAAGGAUGUUUAGAAGCCAUAUAAGUGGCUUUUUUUAA | 0.867
UGCUGCUGAAGGGUGUGUCUUGGGGCACACAUCCACUUUGAUUUUGCUUUACUCUUCCAGAACCGUUGCUGCGUAAUAGAAAUUACAUUUUUCUACUUGAUGGGUCAUCUUAAAUCUGGU | 0.667
GAGGUUGUUAAGGACAAAGCAGGACCUCAUAAGGAAAUCUAUCCCUAUGUCAUCCAGGAACUCCGACCAACUUUAAAUGAAUUGGGAAUCUCCACUCCAGAGGAGCUGGGCCUUGACAAA | 0.15
UCAAUAACCUUUUCAGAUGAAAACGAUGAUCAGGAUUUUGAAUUAUGGGAUGAUGCCGGAUUAAACAUUCCAAAACCUCCAGACUUAUUGCAACUCUACCGGGAUUUUGGAAAUCAUCAA | 0.183
GCUGAGCCUCAGCUGUAUGGUAAUGCCACCAGUGACCAUCCCAACAAUCAAGAUCAAAGCCGCAGUCUUCCUGAAGAAUGUGUACCUUCAGAUGAAAGUACUCCUCCGAGUAUUAAAAAA | 0.156

Study 3
Target: Sal-like protein 4, full length isoform B (SALL4, Homo sapiens, UniProt Q9UJQ4-2, residues 1-616)
Method: universal PBM
Form: double-stranded DNA, one strand shown
Sample: in vitro
Concentration: not given
Notes: 8-mer, flanks averaged, mean of replicates
Reading: higher = stronger binding
Sequence | E-score
ACGGTTTC | -0.173
CCGGCCAC | -0.352
CGATGTGA | 0.0008
AAGTAGAT | 0.0879
AGGAACTC | -0.0569
CTATCAAC | 0.0522
ACATAAAG | 0.276
CCTGAGTA | 0.0272
CTTCGCTA | 0.00769
CCTATCGC | -0.237
TAGGTGCA | -0.0644

Single results of other studies
Molecule | target | assay | system | conditions | how to read | quantity | value
PhoQ, residues 284 288 289 292 302 303 SLSLLA | PhoP, residues 12 14 15 18 19 VHTVL (Escherichia coli, UniProt P23836) | Sort-seq, measured: YFP reporter | E. coli | PhoQ-PhoP variant library, with: 10 µM Mg2+ | baseline: high Mg2+ state, higher = stronger signaling | fold induction | 47.2

For quick reference, copied from above (study 2):
Sequence | bound/input enrichment [ratio]
AUUUGAUACUAAUCUGUCUGUUUGUUUGUGGAUUUUGAGAAAUAUUUGCUUAACUACCCAAACCGGAUUUCUGGUAUUAAAUGGCCUUUGGGUCCUAAAAGCUUUUUUUAACUUCUUGCU | 0.309
ACUCAUGUACCCAUGUUACAGGUAUGGACUGCUGAUAAACCACAUCCACAAGAAGAGUAUUCCGAUUGCCUGUGGGCCCAGAUUCAGAAAUUGAAAAAGGAUCGCUGGCAGGAACGGCAC | 0.134
CAUCUCUCAUUUUAUAUGUCCAGAAAUGGCUUUGAAUUUUAAGCAAUUACUAGUUUUAAUCCGCUCUGCCCUCAUGAAGUAUUAUUAUAAUUCACCAUAAACAGCUAUCUGUCUGAAUUA | 36.6
CUUAAUUAGAGGGCAAUAUAUGUUUCAUAAAGAAGAGUCUUUAUAAUUUUGUUUGUCAGACCGUAUUUUGGAAUUUGUAUAAUAAGGAUGUUUAGAAGCCAUAUAAGUGGCUUUUUUUAA | 0.867
